Measured values collected from several papers.
Lines come from different studies, so protocols differ. Values joined by “and” are separate records of one study, mostly repeats; a detail may differ. ± gives the spread as reported.
lasR: Transcriptional activator protein LasR (lasR, Pseudomonas aeruginosa, UniProt P25084)
OXA-48: Beta-lactamase OXA-48 (OXA-48, Klebsiella pneumoniae, UniProt Q6XEC0)
Orco: Orco (Drosophila melanogaster, UniProt Q9VNB5)
HDAC6: Protein deacetylase HDAC6 (HDAC6, Homo sapiens, UniProt Q9UBN7)
MAPK8: Mitogen-activated protein kinase 8 (MAPK8, Homo sapiens, UniProt P45983)
Oprm1: Mu-type opioid receptor (Oprm1, Mus musculus, UniProt P42866)

Chains of the proteins cited; added tags and fusions are not shown. Residues count along the entry.
UniProt P25084, whole entry: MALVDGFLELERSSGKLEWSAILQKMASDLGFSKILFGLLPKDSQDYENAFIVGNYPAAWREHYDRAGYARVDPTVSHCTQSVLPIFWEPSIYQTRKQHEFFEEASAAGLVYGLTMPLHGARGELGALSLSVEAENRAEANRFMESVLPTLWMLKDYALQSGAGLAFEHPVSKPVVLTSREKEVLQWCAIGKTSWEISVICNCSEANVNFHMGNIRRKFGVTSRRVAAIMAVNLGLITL
UniProt P25084, 1-173 limits assumed: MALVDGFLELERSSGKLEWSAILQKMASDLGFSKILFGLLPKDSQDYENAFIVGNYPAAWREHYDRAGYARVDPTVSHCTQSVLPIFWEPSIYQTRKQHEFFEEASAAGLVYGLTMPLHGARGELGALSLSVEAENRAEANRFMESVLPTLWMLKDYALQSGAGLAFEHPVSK
UniProt Q6XEC0, 23-265 limits assumed: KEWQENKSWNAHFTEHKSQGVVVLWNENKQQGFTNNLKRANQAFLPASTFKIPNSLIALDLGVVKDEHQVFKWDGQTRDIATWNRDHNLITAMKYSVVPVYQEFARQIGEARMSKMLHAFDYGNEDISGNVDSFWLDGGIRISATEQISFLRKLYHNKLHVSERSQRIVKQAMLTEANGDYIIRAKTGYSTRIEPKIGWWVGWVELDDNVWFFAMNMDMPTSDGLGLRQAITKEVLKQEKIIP
UniProt Q9VNB5, whole entry: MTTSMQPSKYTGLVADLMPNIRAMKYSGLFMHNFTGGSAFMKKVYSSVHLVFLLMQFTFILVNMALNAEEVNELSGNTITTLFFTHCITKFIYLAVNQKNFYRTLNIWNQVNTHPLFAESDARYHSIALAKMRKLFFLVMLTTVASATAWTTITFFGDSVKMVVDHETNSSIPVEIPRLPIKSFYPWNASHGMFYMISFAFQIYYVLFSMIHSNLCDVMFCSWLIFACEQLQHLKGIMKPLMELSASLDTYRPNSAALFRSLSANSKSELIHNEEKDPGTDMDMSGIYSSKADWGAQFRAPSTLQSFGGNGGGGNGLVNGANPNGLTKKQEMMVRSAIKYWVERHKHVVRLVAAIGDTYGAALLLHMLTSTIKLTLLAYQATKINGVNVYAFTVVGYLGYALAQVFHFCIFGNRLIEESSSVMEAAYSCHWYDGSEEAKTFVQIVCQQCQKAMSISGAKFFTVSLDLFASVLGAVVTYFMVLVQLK
UniProt P45983, 1-384 isoform 3: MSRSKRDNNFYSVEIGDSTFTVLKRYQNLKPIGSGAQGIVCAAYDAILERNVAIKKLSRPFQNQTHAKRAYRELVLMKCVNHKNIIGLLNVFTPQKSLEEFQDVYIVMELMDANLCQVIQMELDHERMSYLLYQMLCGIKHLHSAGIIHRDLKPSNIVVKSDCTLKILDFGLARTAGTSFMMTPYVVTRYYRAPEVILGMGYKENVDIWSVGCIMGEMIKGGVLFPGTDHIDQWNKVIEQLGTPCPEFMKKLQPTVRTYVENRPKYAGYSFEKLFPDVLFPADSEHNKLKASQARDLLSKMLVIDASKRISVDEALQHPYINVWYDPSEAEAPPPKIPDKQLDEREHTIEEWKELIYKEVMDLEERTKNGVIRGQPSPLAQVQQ
UniProt P42866, whole entry: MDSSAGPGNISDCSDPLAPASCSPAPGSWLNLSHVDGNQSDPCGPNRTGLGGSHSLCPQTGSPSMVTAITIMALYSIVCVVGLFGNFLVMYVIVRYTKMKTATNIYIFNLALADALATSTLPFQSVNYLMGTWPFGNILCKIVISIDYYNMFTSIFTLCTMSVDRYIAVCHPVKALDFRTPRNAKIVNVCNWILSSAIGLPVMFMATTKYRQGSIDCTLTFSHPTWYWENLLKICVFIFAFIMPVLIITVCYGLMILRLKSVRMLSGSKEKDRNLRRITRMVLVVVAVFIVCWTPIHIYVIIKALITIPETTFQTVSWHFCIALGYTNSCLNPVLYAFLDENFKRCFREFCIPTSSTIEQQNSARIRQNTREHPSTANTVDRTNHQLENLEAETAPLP
UniProt Q13148, whole entry: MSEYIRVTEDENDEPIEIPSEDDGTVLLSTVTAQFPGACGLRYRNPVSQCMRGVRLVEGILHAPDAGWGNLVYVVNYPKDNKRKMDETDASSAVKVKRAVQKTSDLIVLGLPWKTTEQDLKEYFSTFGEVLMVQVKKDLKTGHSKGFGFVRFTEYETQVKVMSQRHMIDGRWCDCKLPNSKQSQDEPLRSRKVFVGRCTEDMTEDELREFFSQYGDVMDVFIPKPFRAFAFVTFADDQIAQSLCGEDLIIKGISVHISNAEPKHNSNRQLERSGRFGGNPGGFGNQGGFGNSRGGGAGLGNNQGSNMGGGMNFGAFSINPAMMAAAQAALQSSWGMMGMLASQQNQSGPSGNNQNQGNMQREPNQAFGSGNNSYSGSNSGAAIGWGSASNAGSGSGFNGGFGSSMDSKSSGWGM
UniProt P01106, whole entry: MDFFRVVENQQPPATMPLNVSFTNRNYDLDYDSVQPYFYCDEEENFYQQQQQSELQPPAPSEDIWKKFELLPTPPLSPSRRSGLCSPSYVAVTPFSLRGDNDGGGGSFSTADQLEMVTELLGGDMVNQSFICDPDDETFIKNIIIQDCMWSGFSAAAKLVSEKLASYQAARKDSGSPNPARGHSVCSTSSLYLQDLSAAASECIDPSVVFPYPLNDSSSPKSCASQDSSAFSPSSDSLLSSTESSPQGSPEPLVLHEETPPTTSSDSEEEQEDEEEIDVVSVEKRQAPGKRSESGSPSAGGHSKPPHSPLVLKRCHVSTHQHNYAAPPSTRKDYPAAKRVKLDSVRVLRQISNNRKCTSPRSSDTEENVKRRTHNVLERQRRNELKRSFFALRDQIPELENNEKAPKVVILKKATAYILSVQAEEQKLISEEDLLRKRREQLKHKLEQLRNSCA
UniProt Q05769, 18-604 limits assumed: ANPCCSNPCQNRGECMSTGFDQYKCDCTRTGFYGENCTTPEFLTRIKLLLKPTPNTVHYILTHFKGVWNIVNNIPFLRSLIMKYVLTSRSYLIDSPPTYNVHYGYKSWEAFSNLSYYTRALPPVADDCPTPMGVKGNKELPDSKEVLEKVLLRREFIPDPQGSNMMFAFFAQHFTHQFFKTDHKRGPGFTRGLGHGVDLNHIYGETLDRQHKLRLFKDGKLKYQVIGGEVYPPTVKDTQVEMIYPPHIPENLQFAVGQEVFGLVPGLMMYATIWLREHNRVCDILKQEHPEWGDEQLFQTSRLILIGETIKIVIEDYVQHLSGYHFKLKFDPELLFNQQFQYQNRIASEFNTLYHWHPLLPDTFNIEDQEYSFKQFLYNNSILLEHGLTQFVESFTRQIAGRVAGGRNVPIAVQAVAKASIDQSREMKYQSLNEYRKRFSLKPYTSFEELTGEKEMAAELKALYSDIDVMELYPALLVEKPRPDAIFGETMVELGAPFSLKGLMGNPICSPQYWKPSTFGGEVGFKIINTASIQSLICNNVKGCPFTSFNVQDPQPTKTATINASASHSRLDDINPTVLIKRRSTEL
UniProt P54292, whole entry: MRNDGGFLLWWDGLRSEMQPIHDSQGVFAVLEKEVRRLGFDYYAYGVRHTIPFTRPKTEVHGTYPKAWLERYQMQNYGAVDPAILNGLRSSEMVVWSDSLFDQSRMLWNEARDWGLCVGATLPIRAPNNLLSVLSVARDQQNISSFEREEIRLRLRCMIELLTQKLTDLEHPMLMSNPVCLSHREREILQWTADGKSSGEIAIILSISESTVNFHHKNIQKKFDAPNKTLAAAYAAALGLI
UniProt P05067, 672-713 limits assumed: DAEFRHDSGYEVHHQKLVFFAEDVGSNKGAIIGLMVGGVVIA
UniProt P21554, whole entry: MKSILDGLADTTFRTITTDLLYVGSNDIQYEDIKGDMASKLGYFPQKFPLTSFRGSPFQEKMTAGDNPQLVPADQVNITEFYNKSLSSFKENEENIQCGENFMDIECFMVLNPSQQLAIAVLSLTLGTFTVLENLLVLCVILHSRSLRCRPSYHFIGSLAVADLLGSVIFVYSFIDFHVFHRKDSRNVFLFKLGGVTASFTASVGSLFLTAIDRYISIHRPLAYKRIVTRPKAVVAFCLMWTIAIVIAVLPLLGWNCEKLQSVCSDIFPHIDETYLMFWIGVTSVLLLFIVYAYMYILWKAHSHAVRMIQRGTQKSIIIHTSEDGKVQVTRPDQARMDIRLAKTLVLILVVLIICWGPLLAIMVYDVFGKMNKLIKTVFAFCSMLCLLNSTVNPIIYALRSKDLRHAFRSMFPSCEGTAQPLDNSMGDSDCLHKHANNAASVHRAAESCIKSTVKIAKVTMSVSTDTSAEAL
UniProt Q07440, whole entry P104K/C113S, looked up: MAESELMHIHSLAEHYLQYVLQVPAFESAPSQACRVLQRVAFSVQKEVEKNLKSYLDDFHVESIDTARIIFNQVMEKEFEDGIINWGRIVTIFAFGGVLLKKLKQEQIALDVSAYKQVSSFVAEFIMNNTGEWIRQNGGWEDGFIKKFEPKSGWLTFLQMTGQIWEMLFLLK
UniProt Q8RLA6, 21-275 limits assumed: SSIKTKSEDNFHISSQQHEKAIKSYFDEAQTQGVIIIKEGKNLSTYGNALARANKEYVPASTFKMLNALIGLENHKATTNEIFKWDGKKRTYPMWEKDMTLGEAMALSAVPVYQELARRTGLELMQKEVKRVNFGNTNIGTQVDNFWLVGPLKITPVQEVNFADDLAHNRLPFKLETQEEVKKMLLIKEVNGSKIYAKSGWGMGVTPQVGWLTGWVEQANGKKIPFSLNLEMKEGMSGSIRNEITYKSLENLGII
UniProt Q07812, whole entry: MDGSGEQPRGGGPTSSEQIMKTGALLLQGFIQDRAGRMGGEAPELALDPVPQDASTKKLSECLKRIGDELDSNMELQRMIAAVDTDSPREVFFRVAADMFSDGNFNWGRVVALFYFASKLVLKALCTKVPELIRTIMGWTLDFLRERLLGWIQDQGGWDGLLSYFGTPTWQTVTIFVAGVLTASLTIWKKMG
UniProt Q9BY41, whole entry: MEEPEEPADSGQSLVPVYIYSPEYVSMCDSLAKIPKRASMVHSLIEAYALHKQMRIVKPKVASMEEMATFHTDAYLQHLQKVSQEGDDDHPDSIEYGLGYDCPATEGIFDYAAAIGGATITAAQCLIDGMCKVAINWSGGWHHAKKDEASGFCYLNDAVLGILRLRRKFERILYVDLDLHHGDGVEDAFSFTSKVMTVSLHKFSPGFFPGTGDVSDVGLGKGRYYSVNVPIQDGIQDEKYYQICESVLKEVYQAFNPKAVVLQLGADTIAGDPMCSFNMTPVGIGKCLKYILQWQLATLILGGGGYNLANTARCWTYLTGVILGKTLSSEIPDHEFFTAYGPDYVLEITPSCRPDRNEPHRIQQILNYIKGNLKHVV
UniProt P13945, whole entry: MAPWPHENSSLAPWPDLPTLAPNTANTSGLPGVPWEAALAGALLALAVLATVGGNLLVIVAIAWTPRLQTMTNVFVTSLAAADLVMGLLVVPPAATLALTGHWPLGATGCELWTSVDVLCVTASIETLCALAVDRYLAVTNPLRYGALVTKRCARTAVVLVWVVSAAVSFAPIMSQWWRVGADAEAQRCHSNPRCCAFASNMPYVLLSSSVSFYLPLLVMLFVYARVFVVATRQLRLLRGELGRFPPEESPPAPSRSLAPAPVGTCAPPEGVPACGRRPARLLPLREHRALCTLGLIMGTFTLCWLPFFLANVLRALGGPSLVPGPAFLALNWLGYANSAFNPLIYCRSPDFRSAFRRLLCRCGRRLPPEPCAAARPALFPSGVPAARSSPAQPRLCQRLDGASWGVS
UniProt P51452, 28-179 limits assumed: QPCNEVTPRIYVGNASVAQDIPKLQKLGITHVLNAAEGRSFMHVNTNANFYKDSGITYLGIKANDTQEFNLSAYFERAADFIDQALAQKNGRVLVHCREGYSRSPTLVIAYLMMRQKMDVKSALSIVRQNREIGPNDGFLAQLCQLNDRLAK
UniProt Q5HH38, whole entry: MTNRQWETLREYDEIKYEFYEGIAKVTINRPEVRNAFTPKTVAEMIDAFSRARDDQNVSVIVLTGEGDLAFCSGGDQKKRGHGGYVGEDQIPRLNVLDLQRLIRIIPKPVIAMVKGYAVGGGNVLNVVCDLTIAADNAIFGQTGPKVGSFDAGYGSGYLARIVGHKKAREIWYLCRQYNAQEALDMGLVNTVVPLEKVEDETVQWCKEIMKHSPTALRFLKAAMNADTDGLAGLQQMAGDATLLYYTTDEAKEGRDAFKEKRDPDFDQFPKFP
UniProt P09958, 108-715 limits assumed: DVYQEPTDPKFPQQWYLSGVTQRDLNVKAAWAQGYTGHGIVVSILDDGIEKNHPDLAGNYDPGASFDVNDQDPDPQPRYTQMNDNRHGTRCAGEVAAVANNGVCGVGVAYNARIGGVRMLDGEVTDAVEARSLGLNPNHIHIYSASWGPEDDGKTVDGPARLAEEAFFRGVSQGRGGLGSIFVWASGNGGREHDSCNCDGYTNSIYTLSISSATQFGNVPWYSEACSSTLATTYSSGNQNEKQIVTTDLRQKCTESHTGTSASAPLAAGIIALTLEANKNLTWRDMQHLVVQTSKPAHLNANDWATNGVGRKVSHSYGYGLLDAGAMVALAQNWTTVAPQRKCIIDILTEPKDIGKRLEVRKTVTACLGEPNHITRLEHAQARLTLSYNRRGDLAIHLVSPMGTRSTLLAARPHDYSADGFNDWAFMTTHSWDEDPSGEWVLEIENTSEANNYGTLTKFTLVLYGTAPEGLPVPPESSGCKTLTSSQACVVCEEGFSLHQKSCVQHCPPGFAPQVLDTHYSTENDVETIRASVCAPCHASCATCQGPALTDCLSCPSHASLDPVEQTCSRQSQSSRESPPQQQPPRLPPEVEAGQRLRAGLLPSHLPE

Under “ΔH of binding”, `CC1(C)SCN(C(=O)[C@@H](O)[C@H](Cc2ccccc2)NC(=O)COc2ccccc2)[C@@H]1C(=O)N[C@H]1c2ccccc2C[C@H]1O` is recorded as -4.49 ± 0.182 kcal/mol (Gag-Pol polyprotein, protease (gag-pol, Human immunodeficiency virus type 1 group M subtype B, UniProt P04585, L521I/L551I/Q495K); isothermal titration calorimetry; concentration not given, pH 5.0, 25 °C, 2% DMSO).
`Cc1nc2c[nH]c(/C=C/C=C/c3ccc(N(C)C)cc3)cn-2c1=O` — result for “signal enhancement relative to ThT”: 16.5 ± 3.4 (TAR DNA-binding protein 43, oligomeric (TARDBP, Homo sapiens, UniProt Q13148); oligomer detection; relative to: ThT).
`COCOc1c(Br)cc(Br)cc1CNC(=O)c1ccccc1[N+](=O)[O-]` gave a maximum efficacy of 90% (lasR; reporter gene, agonist; Escherichia coli JLD271 lasI-lacZ reporter; relative to: OdDHL).
`C#CCCCN1C(=O)[C@@]2(CN2[S@@+]([O-])C(C)(C)C)c2ccccc21` (some centres unmarked) — result for “protein level reduction”: > 50% (MYC (Homo sapiens, UniProt P01106); protein degradation, degrader, HiBiT; HEK293-LgBiT; 50 µM, 24 h).
For `COc1ccc2c(c1)c(CC(=O)NCCCCNC(=O)CCC(=O)OC1c3cc4c(cc3C(c3cc(OC)c(OC)c(OC)c3)C3C(=O)OCC13)OCO4)c(C)n2C(=O)c1ccc(Cl)cc1` (centres unmarked), “k2 forward rate constant” read 0.0024 s⁻¹ (Ptgs2 (Mus musculus, UniProt Q05769); time-dependent inhibitor; 37 °C).
`CCCC(=O)NCC1CCCO1` (racemic) gave an activation of 0% (rhlR (Pseudomonas aeruginosa, UniProt P54292); reporter gene, agonist; Escherichia coli JLD271 reporter; 10 µM; relative to: BHL 1 mM).
For `O=C(O)c1ccc(-c2cccc(C(=O)O)c2)cc1`, the ligand efficiency was 0.44 (OXA-48; enzyme activity).
`CCn1c(SCC(=O)Nc2ccc(C(C)(C)C)cc2)nnc1-c1cccnc1` gave a maximal efficacy of 42% (Orco; calcium mobilization, agonist; HEK293 stably expressing Orco; relative to: VUAA1).
For `COc1cc2c(cc1OC)C(=O)C(CC1CCN(Cc3cc(C=Cc4ccc(C=Cc5ccc(N(C)C)cc5)cc4)cc(OC)c3O)CC1)C2` (centres unmarked), the fluorescence turn-on was ~4 fold (Amyloid-beta precursor protein, Aβ42 fibrils (APP, Homo sapiens, UniProt P05067); fluorescence upon binding, refers to: emission at 470 nm; relative to: probe without protein).
`O=C(NC1CCN(c2ncnc3c2nc(-c2ccccc2Cl)n3-c2ccc(Cl)cc2)CC1)C1CCCCC1` gave a Ke of 3 nM (CNR1 (Homo sapiens, UniProt P21554); calcium mobilization, antagonist, FLIPR; CHO-K1 with Gαq16; added: CP55940).
For `CC(=O)NCCCC[C@H](NC(=O)CNC(=O)[C@H](CCCNC(=N)N)NC(C)=O)C(=O)N[C@@H](Cc1c[nH]c2ccccc12)C(N)=O`, the kcat/KM was 4300 ± 1800 M⁻¹ s⁻¹ (HDAC6; deacetylation, substrate; 25 °C, added: 10 to 50 nM enzyme).
The maximum efficacy of `O=C(Oc1c(Br)cc(Br)cc1CNC(=O)c1ccccc1[N+](=O)[O-])c1ccccc1Cl` is reported as 98% (lasR; reporter gene, agonist; Escherichia coli JLD271 lasI-lacZ reporter; relative to: OdDHL).
`COC(=O)[C@@]1(C)C=C(C(=O)Nc2ccc(C)c(C(=O)Nc3ccc(Nc4nccc(-c5cccnc5)n4)cc3)c2)C(=O)CC1` has a remaining activity of 0.0209 (MAPK8; kinase activity, inhibitor; 44.44 µM, unit not given, added: 10 mM GSH; relative to: DMSO).
The kcat of `CC(=O)NCCCC[C@H](NC(C)=O)C(N)=O` is reported as 0.123 ± 0.018 s⁻¹ (HDAC6; deacetylation, substrate; 25 °C, added: 10 to 50 nM enzyme).
`O=C(Oc1c(Br)cc(Br)cc1CNC(=O)c1ccccc1[N+](=O)[O-])c1ccccc1` gave a melting temperature of ~64 °C and 63.5 °C (lasR; thermal stability, differential scanning fluorimetry).
For `CC(C)c1ccc(NC(=O)CSc2nnc(-c3ccncc3)n2C2CC2)cc1`, the efficacy was 162% (Orco; calcium mobilization, agonist; HEK293 expressing Drosophila Orco; relative to: VUAA1).
The maximum efficacy of `CCCCCCCC(=O)Oc1c(Br)cc(Br)cc1CNC(=O)c1ccccc1[N+](=O)[O-]` is reported as 99% (lasR; reporter gene, agonist; Escherichia coli JLD271 lasI-lacZ reporter; relative to: OdDHL).
`C=CCN1CC[C@]23c4c5ccc(O)c4O[C@H]2[C@H](NC(=O)c2ccc(N=[N+]=[N-])c([125I])c2)CC[C@@]3(O)[C@H]1C5`: “rapidly dissociating fraction” 53% (Oprm1; binding; CHO cell membranes; 0.1 nM, 25 °C, added: levallorphan 10 µM).
The fluorescence increase of `COC(=O)[C@@H](CS)N1C(=O)c2ccc(N(C)C)cc2C1=O` is reported as 12 fold (blaNDM-1 (Klebsiella pneumoniae, UniProt C7C422); probe; 10 µM, pH 7.0, probe:enzyme 1:3, added: ZnSO4 10 µM; relative to: probe alone).
`COc1c(Br)cc(Br)cc1CNC(=O)c1ccccc1[N+](=O)[O-]` gave a melting temperature of 56 °C (lasR; thermal stability, differential scanning fluorimetry).
With `Nc1nc2c(ncn2[C@@H]2CC[C@H](OC(C(=O)O)P(=O)(O)O)C2)c(=O)[nH]1` (relative stereo) the alpha value was 3.92 (Gag-Pol polyprotein, reverse transcriptase (gag-pol, Human immunodeficiency virus type 1 group M subtype B, UniProt P04585); mixed inhibitor, mixed model fit; poly rC.dG template/primer, unit not given, added: varying dGTP; 1 noncompetitive, large competitive).
`O=[N+]([O-])c1ccc(N=Nc2c(O)ccc3cc(S(=O)(=O)O)ccc23)cc1`: “Noxa peptide bound” 43.5% (Bcl-2-related protein A1 (Mus musculus, UniProt Q07440, C113S/P104K); binding, inhibitor, fluorescence polarization competition; 100 µM, overnight, 20 °C, added: FITC-Noxa peptide 375 nM; relative to: peptide without protein).
`O=C(N[C@@H]1CC[C@@]2(O)[C@H]3Cc4ccc(O)c5c4[C@@]2(CCN3CC2CC2)[C@H]1O5)c1ccnc(Cl)c1` has a selectivity ratio of 4020 (Oprk1 (Mus musculus, UniProt P33534); radioligand binding; CHO; added: [3H]diprenorphine; relative to: Ki δ over Ki κ).
With `CCn1c(SCC(=O)Nc2ccc(C(C)C)cc2)nnc1-c1cccnc1` the efficacy was 127% (Orco; calcium mobilization, agonist; HEK293 expressing Drosophila Orco; relative to: VUAA1).
`COC(=O)[C@@]1(C)C=C(C(=O)Nc2cc(C(=O)Nc3ccc(Nc4nccc(-c5cccnc5)n4)cc3)ccc2C)C(=O)CC1` gave a remaining activity of 0.046 (MAPK8; kinase activity, inhibitor; 4.938 µM, unit not given, added: 10 mM GSH; relative to: DMSO).
`O=S(=O)(O)c1ccc(-c2ccc(S(=O)(=O)O)cc2)cc1` has a ligand efficiency of 0.32 (Beta-lactamase (blaOXA-33, Acinetobacter baumannii, UniProt Q8RLA6); enzyme activity, inhibitor).
For `CN1CCN(CC(O)CN2c3ccccc3Sc3ccccc32)CC1` (centres unmarked), “chemical shift perturbation” read 1.3 Hz (BAX (Homo sapiens, UniProt Q07812); ligand-observed 1H NMR; 100 µM, 10 µM BAX; relative to: compound without BAX).
The kcat of `CC(=O)NCCCC[C@H](NC(C)=O)C(=O)N[C@@H](Cc1c[nH]c2ccccc12)C(N)=O` is reported as > 0.02 s⁻¹ (HDAC8 (Homo sapiens, UniProt Q9BY41); deacetylation, substrate; 25 °C, added: 150 nM enzyme).
With `COc1ccc(CN[C@@H]2CO[C@H](C(c3ccccc3)c3ccccc3)C[C@H]2O)cc1` the inhibition was 60.7% (ADRB3 (Homo sapiens, UniProt P13945); radioligand binding, radioligand displacement; 10 µM).
With `O=C(Cc1cccs1)NC(B(O)O)c1cccc(C(=O)O)c1` (centres unmarked) the adduct mass was 40600 Da (ADC-7 beta-lactamase (Acinetobacter baumannii, UniProt Q6DRA1); ESI-MS intact protein; 15 min, added: enzyme 14 µM).
`CC(=O)N[C@@H](Cc1c[nH]cn1)C(=O)N[C@H](C(=O)NCC(=O)N[C@@H](Cc1ccccc1)C(=O)N[C@@H](CC(C)C)C(=O)N[C@H](C(=O)N[C@@H](CCC(=O)O)C(=O)N[C@@H](Cc1cc(=O)oc2cc(OP(=O)(O)O)ccc12)C(=O)N[C@H](C(=O)N[C@@H](C)C(=O)N[C@H](C(=O)N[C@@H](CCCNC(=N)N)C(=O)N[C@@H](Cc1c[nH]c2ccccc12)C(N)=O)[C@@H](C)O)C(C)C)[C@@H](C)O)[C@@H](C)O` gave a kcat of 0.28 s⁻¹ (DUSP3 (Homo sapiens, UniProt P51452); substrate; pH 6, ERK1/2 activation-loop peptide).
`C#CCN1CC[C@]23c4c5ccc(O)c4O[C@H]2[C@H](NC(=O)c2ccc(N=[N+]=[N-])c([125I])c2)CC[C@@]3(O)[C@H]1C5`: “dissociation half-life (slow phase)” 2.4 h (Oprm1; binding; CHO cell membranes; 0.1 nM, 25 °C).
The ΔΔG of `CC(C)(COP(=O)(O)OP(=O)(O)OC[C@H]1O[C@@H](n2cnc3c(N)ncnc32)[C@H](O)[C@@H]1OP(=O)(O)O)[C@@H](O)C(=O)NCCC(=O)NCCSC(CC(=O)c1ccc(Cl)cc1)C(=O)O` (some centres unmarked) is reported as 1.3 kcal/mol (1,4-dihydroxy-2-naphthoyl-CoA synthase (menB, Staphylococcus aureus, UniProt Q5HH38); isothermal titration calorimetry; relative to: CoA binding).
With `C[C@H](NC(=O)[C@H](CCC(N)=O)NC(=O)[C@H](CCCNC(=N)N)NC(=O)[C@H](CCCCN)NC(=O)[C@H](CCC(=O)O)NC(=O)[C@H](CCCNC(=N)N)NC(=O)[C@H](CCCCN)NC(=O)[C@H](Cc1cnc[nH]1)NC(=O)c1ccccc1N)C(=O)N[C@@H](CCCCN)C(=O)N[C@@H](Cc1cnc[nH]1)C(=O)N[C@@H](CCC(N)=O)C(=O)NCCNc1ccc([N+](=O)[O-])cc1[N+](=O)[O-]` the Km was 2.7 µM (Furin (FURIN, Homo sapiens, UniProt P09958); substrate; pH 7).
`Nc1cc(S(=O)(=O)O)cc2cc(S(=O)(=O)O)cc(O)c12` has a ligand efficiency of 0.34 (OXA-48; enzyme activity).

Repeated from above:
`C#CCCCN1C(=O)[C@@]2(CN2[S@@+]([O-])C(C)(C)C)c2ccccc21` (some centres unmarked) — result for “protein level reduction”: > 50% (MYC (Homo sapiens, UniProt P01106); protein degradation, degrader, HiBiT; HEK293-LgBiT; 50 µM, 24 h).
`COCOc1c(Br)cc(Br)cc1CNC(=O)c1ccccc1[N+](=O)[O-]` gave a maximum efficacy of 90% (lasR; reporter gene, agonist; Escherichia coli JLD271 lasI-lacZ reporter; relative to: OdDHL).
The maximum efficacy of `CCCCCCCC(=O)Oc1c(Br)cc(Br)cc1CNC(=O)c1ccccc1[N+](=O)[O-]` is reported as 99% (lasR; reporter gene, agonist; Escherichia coli JLD271 lasI-lacZ reporter; relative to: OdDHL).
